Experimental data of several laboratories.
Every numbered part comes from another study and shows a few of its results, in no order. Changes are numbered by the printed parent chain.
Sequence of UniProt P48730 (whole entry, looked up): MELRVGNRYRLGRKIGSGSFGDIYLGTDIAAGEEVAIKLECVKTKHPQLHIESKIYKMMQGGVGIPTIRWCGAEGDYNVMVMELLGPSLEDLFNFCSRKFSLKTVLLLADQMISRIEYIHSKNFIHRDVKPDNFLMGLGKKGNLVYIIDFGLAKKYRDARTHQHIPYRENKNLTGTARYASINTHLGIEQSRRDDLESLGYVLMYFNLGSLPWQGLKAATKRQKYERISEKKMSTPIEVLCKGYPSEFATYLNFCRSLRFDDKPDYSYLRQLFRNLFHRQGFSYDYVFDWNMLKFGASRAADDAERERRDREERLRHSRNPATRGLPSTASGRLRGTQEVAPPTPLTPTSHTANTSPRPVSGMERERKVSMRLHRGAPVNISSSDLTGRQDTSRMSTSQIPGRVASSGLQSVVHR
Sequence of UniProt Q02763 (whole entry, looked up): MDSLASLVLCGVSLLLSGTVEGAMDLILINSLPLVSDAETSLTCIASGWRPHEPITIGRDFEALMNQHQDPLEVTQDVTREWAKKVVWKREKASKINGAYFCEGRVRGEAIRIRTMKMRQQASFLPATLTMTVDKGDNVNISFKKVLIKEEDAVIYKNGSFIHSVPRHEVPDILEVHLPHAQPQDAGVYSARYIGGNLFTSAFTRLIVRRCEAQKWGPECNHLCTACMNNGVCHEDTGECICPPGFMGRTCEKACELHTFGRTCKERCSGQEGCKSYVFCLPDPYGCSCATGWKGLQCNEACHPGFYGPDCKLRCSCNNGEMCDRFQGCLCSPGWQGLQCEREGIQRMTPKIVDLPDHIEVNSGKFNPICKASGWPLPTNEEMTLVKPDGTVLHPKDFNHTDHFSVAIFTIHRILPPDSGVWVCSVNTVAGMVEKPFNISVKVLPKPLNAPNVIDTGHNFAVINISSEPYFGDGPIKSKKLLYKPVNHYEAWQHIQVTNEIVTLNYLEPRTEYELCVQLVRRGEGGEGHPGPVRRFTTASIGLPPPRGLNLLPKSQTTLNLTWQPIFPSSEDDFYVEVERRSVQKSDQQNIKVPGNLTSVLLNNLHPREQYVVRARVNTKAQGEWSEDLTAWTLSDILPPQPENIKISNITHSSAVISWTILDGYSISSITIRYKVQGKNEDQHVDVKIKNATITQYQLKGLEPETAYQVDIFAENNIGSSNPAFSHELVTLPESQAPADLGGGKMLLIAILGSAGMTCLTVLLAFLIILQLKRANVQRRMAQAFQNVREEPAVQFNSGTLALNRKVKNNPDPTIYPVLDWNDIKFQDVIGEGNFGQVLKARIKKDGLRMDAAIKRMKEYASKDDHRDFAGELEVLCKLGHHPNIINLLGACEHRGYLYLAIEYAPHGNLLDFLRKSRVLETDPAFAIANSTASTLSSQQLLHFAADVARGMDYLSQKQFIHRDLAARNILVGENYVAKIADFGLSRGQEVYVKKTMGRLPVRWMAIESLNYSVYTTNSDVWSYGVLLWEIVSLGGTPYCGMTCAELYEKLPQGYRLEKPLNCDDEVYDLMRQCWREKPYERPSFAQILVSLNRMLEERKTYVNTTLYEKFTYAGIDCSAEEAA
Sequence of UniProt Q86UE8 (whole entry, looked up): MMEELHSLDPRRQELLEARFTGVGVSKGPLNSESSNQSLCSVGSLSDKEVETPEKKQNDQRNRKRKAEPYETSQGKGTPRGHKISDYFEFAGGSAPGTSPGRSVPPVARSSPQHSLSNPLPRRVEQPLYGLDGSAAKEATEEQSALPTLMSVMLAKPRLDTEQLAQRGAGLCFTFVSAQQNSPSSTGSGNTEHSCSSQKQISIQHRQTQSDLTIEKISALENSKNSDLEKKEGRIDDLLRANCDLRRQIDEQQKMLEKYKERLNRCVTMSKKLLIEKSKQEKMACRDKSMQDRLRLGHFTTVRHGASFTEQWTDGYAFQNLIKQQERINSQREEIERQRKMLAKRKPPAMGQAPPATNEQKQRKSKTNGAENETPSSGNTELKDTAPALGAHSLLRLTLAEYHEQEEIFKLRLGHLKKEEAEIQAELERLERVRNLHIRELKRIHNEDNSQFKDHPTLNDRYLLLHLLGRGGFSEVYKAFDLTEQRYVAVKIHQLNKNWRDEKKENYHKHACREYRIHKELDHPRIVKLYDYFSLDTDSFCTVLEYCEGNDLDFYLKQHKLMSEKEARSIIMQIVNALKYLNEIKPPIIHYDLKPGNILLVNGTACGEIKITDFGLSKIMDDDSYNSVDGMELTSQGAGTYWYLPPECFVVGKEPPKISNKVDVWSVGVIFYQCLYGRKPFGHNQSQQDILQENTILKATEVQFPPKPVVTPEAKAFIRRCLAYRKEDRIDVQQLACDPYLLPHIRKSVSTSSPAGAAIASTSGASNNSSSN
Sequence of UniProt Q9P0L2 (whole entry, looked up): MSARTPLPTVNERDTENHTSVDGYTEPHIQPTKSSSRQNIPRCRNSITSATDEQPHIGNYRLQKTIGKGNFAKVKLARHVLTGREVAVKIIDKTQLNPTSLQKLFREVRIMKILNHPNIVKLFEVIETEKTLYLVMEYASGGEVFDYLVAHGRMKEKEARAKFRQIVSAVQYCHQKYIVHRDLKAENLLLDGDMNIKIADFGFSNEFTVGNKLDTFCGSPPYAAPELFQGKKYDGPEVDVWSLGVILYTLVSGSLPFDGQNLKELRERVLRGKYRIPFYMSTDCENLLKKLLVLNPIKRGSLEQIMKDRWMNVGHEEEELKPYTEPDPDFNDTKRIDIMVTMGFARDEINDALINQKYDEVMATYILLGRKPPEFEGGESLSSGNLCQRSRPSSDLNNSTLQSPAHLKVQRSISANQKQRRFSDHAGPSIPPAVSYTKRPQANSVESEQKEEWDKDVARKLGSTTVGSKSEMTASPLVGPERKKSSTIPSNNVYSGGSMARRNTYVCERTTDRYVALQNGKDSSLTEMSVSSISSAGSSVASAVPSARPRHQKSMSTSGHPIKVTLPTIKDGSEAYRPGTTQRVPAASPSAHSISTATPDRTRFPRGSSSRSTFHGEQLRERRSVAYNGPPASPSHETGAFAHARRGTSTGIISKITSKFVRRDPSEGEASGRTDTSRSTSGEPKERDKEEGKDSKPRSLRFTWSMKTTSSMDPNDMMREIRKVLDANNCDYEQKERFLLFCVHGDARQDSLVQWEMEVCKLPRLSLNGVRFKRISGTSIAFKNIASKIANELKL

Sample 1
SMILES: O=C(O)[C@H]1[C@H](Cn2nnc3ccccc3c2=O)CC[C@@H]1C(=O)c1ccc(OCCC2CCOCC2)cc1
Read-out: cell-free assay
Technique: competition with immobilised ligand
Tested at: 1 µM
target | remaining binding [%]
Angiopoietin-1 receptor (TEK, Homo sapiens, UniProt Q02763) | 86
Serine/threonine-protein kinase MARK1 (MARK1, Homo sapiens, UniProt Q9P0L2) | 99
Casein kinase I isoform delta (CSNK1D, Homo sapiens, UniProt P48730) | 100
Mitogen-activated protein kinase kinase kinase 5 (MAP3K5, Homo sapiens, UniProt Q99683) | 95
Serine/threonine-protein kinase tousled-like 2 (TLK2, Homo sapiens, UniProt Q86UE8) | 98

Sample 2
Target: CCNF, cyclin fold, Cln2 fusion (human)
Technique: yeast growth competition, sequencing
Medium: yeast
Setting: strong parent motif
Reference: not given
Direction: higher = stronger binding
Parent: RBL2 docking peptide (human); STTRRRLFVENDS
Change | normalised enrichment score
N11P | 9.03
R5M | 0.793
N11V | 8.98
N11H | 8.33
R6G | 3.32
L7C | 1.09
E10H | 7.66
R4P | 3.2

Sample 3
Target: Prothrombin, mature alpha-thrombin (F2, Homo sapiens, UniProt P00734)
Technique: aptamer microarray, sandwich
Molecule type: DNA with 2'F-ANA
Medium: in vitro
Tested at: 200 nM
Setting: whole 15-mer aptamer, many near background
Added: Cy3 exosite-II aptamer, 400 nM
Direction: higher = stronger binding
Sequence: GGTTGGTGTGGTTGG
Modification | mean fluorescence intensity
2'F-ANA at 1 6 7 8 9 10 12 15 | 69.1 a.u.
2'F-ANA at 1 2 4 5 6 9 10 14 | 56.4 a.u.
2'F-ANA at 1 4 8 10 11 13 14 15 | 123 a.u.
2'F-ANA at 5 6 7 8 15 | 83.5 a.u.
2'F-ANA at 3 4 5 8 10 11 15 | 50.9 a.u.
2'F-ANA at 1 2 5 6 7 10 11 12 13 14 | 49.5 a.u.
2'F-ANA at 2 7 8 9 10 11 12 | 153 a.u.
2'F-ANA at 1 2 4 5 7 9 10 12 14 | 46 a.u.

Sample 4
Target: Misshapen-like kinase 1 (MINK1, Homo sapiens, UniProt Q8N4C8)
Sequence of UniProt Q8N4C8 (whole entry, looked up): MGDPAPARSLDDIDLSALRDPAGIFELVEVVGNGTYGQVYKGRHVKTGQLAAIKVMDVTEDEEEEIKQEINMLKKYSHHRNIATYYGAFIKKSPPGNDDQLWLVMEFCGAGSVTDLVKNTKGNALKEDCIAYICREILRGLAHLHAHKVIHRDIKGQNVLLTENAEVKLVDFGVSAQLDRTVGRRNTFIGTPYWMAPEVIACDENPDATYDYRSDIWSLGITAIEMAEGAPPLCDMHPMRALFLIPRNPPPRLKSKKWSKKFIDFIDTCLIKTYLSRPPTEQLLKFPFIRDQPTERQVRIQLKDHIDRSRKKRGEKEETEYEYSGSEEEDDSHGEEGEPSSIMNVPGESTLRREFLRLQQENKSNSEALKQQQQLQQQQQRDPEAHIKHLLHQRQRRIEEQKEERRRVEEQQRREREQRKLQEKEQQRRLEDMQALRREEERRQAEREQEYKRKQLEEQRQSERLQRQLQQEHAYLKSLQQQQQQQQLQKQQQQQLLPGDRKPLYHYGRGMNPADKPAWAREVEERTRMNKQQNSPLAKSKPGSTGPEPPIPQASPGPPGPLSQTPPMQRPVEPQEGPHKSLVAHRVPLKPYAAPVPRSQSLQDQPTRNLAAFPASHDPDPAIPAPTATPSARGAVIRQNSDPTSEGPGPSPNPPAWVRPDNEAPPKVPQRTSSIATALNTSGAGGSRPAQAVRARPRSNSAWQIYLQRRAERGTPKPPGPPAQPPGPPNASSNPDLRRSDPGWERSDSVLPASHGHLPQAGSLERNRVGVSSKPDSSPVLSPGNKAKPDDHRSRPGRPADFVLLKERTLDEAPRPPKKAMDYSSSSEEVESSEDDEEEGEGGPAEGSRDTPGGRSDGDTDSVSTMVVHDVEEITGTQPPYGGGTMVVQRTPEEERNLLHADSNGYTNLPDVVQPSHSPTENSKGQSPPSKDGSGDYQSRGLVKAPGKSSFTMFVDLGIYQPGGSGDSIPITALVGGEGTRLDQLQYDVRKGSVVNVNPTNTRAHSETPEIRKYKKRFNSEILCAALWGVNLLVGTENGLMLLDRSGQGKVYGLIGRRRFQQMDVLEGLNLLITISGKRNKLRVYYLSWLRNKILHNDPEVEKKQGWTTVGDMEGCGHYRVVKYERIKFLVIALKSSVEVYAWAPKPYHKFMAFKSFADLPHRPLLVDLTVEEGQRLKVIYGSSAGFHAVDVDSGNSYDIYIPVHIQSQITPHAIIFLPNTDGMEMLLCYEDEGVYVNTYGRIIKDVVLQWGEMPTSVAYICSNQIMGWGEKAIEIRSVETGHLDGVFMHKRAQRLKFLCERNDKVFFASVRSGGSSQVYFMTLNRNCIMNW
Read-out: enzyme activity
Action: inhibitor
Tested at: 0.5 µM
Reference: control
Structure (SMILES) | remaining activity
COc1cc2nccc(Oc3ccc(NC(=S)NC(=O)c4ccccc4C)cc3)c2cc1OC | 90.1%
CCOC(=O)c1c(C)[nH]c(/C=C2\C(=O)Nc3ccccc32)c1C | 88.9%
Cc1ccc(NC(=O)c2ccc(CN3CCN(C)CC3)cc2)cc1Nc1nc(-c2cccnc2)cs1 | 86.7%
O=C(CCCc1ccc(-c2ccccc2F)cc1)Nc1ccc(O)cc1 | 97.3%
C#Cc1cccc(Nc2ncnc3cc(OCCOC)c(OCCOC)cc23)c1 | 85.7%
COc1ccc(C(=O)Nc2sc3c(c2C(N)=O)CCCC3)cc1OC | 85%
CC(C)[C@H](CO)Nc1nc(Nc2cc(N)cc(Cl)c2)c2ncn(C(C)C)c2n1 | 94.5%
O=S(=O)(c1cccc2cnccc12)N1CCCNCC1 | 96.6%
Cc1cccc(-c2[nH]c(C(C)(C)C)nc2-c2ccc3c(c2)OCO3)n1 | 98.4%
Cc1ccc(Nc2nccc(N(C)c3ccc4c(C)n(C)nc4c3)n2)cc1S(N)(=O)=O | 73.7%
O=C(Nc1cccc(Nc2cc(Nc3cccc(C(F)(F)F)c3)ncn2)c1)C1CC1 | 95.9%
O=C1NC(=O)C(c2cn(CCCO)c3ncccc23)=C1c1cnccn1 | 84.8%
Cn1c2ccccc2c2c3c(c4c5ccccc5n(CCC#N)c4c21)CNC3=O | 2.48%

Excerpt of the above (sample 4):
Structure (SMILES) | remaining activity
Cc1cccc(-c2[nH]c(C(C)(C)C)nc2-c2ccc3c(c2)OCO3)n1 | 98.4%
Cc1ccc(Nc2nccc(N(C)c3ccc4c(C)n(C)nc4c3)n2)cc1S(N)(=O)=O | 73.7%
O=C(Nc1cccc(Nc2cc(Nc3cccc(C(F)(F)F)c3)ncn2)c1)C1CC1 | 95.9%
O=C1NC(=O)C(c2cn(CCCO)c3ncccc23)=C1c1cnccn1 | 84.8%
